Measured values pooled from the literature.
Protocols differ between the studies behind these lines. ± marks the error that the study gave.

C[C@](N)(Cc1ccc(O)c(O)c1)C(=O)O
solubility (static gravimetric method; supercritical CO2, 777.5 kg/m3; 5 h, 333 K, pressure 24 MPa): 303 µg/mL

CC(=O)O[C@@]12CO[C@@H]1C[C@H](O)[C@@]1(C)C(=O)[C@H](O)C3=C(C)[C@@H](OC(=O)[C@H](O)[C@@H](NC(=O)OC(C)(C)C)c4ccccc4)C[C@@](O)([C@@H](OC(=O)c4ccccc4)[C@H]21)C3(C)C
solubility (Miglyol 808; 24 h, room temperature): 52100 ± 1500 µg/mL

COc1cc2c(cc1OC)CN(CCc1ccc(NC(=O)c3cccc4c(=O)c5cccc(OC)c5[nH]c34)cc1)CC2
solubility (Carbitol; 24 h, 37 °C): 1310 ± 50 µg/mL

CC[C@H](C)[C@@H]1NC(=O)[C@H]([C@@H](C)O)NC(=O)[C@H](Cc2ccc(O)cc2)NC(=O)[C@H](CCCNC(=N)N)NC(=O)[C@@H]2CCCN2C(=O)[C@H]2CCCN2C(=O)[C@H]([C@@H](C)O)NC(=O)[C@H](C(C)C)NC(=O)[C@H](C(C)C)NC(=O)[C@H](CCCCN)NC(=O)[C@H](CO)NC(=O)[C@H](CCC(N)=O)NC(=O)[C@H](CO)NC(=O)[C@H](Cc2ccc(O)cc2)NC(=O)[C@H](CO)NC(=O)[C@H](Cc2ccc(O)cc2)NC(=O)[C@@H]2CCCN2C(=O)[C@H](CO)NC(=O)[C@H](CC(C)C)NC(=O)[C@H](CC(C)C)NC(=O)[C@H](C)NC(=O)[C@H](C)NC1=O
solubility (turbidity; PBS; 24 h): 265 µM

CN1C(=O)C2(Nc3ccccc3C(=O)N2Cc2cccnc2)c2cc(Br)ccc21 (stereo not drawn)
solubility (dried DMSO stock; PBS; pH 7.4): 20 ± 1.2 µM

CC[C@@H](C(=O)[C@@H](C)[C@@H](O)[C@H](C)CCc1ccc(C)c(O)c1C(=O)O)[C@H]1O[C@](CC)([C@H]2CC[C@](O)(CC)[C@H](C)O2)C[C@@H]1C
solubility (water; 24 h, pH 8): 759 ± 100 µg/mL

Oc1ccc(/C=C/c2cc(O)cc(O)c2)cc1
solubility (shake flask; alcohol; 25 °C): 88000 µg/mL

CC(/C=C/C=C(\C)C(=O)O)=C\C=C\C=C(C)\C=C\C=C(/C)C(=O)O
solubility (shake-flask; FeSSIF; 1 h, pH 5.8, 37 °C): 6.5 µg/mL

CC[C@H](C)[C@H](NC(=O)[C@H](C)N)C(=O)N[C@H](C(=O)NCC(=O)N[C@@H](CC(C)C)C(=O)N[C@@H](CCSC)C(=O)N[C@H](C(=O)NCC(=O)NCC(=O)N[C@H](C(=O)N[C@H](C(=O)O)C(C)C)C(C)C)C(C)C)[C@@H](C)CC
solubility (filtration; sodium phosphate buffer; 200 µM nominal, pH 7.4): 196 ± 1 µM

CCCCN1C(=O)c2ccccc2NC12C(=O)N(C)c1ccc(Br)cc12 (stereo not drawn)
solubility (dried DMSO stock; PBS; pH 7.4): 2.4 to 7.5 µM

CCCCC(CC)COC(=O)CC(C(=O)OCC(CC)CCCC)S(=O)(=O)O.CN(C)C(=N)N=C(N)N (stereo not drawn)
solubility (Capryol 90 (propylene glycol monocaprylate)): > 200 mg/g

CC(=O)O[C@H]1C(=O)[C@@]2(C)[C@H]([C@H](OC(=O)c3ccccc3)[C@]3(O)C[C@H](OC(=O)[C@H](OC(=O)OCc4cc(P(=O)(O)O)ccc4OP(=O)(O)O)[C@@H](NC(=O)c4ccccc4)c4ccccc4)C(C)=C1C3(C)C)[C@]1(OC(C)=O)CO[C@@H]1C[C@@H]2O
solubility (HBSS; 30 s, pH 6.5): > 49000 µg/mL

Oc1c(Br)cc(Cl)c2cccnc12
solubility (shake-flask; dimethylacetamide; 72 h, room temperature): > 80000 µg/mL

O=c1c2cc(O)c(O)cc2oc2cc(O)c([C@@H]3O[C@H](CO)[C@@H](O)[C@H](O)[C@H]3O)c(O)c12
solubility (Tween 80): 35000 ± 3740 µg/mL

Cc1ccc(N2C(=O)c3ccccc3NC23C(=O)N(C)c2ccc([N+](=O)[O-])cc23)cc1 (stereo not drawn)
solubility (dried DMSO stock; PBS; pH 7.4): 1.8 ± 0.3 µM

COC(=O)/C=C/C(=O)O
solubility (HBSS and DMEM media; soluble up to): ≥ 7380 µM

COc1cnc(-n2cnc(C)n2)c2[nH]cc(C(=O)C(=O)N3CCN(C(=O)c4ccccc4)CC3)c12
solubility (aqueous buffer; 90 min, pH 7.4, 5% DMSO, prepared at 500 µM): < 47.3 µg/mL

Cc1ccc(-c2cc(C(F)(F)F)nn2-c2ccc(S(N)(=O)=O)cc2)cc1
solubility (model fasted duodenal solution; pH 6.5): 16 µg/mL

C=CC[C@@H]1/C=C(\C)C[C@H](C)C[C@H](OC)[C@H]2O[C@@](O)(C(=O)C(=O)N3CCCC[C@H]3C(=O)O[C@H](/C(C)=C/[C@@H]3CC[C@@H](O)[C@H](OC)C3)[C@H](C)[C@@H](O)CC1=O)[C@H](C)C[C@@H]2OC
solubility (shake flask; 20% w/v nicotinamide solution; 3 days, 37 °C): 159 ± 8.89 µg/mL

CSc1cc(C)nc(SC)c1NC(=O)CN1CCN(CCSc2nc3ccccc3[nH]2)CC1.Cl
solubility (0.01 N HCl aqueous; 24 h, pH 2.3): 3240 µg/mL

Tannic acid
solubility (aqueous buffer): > 100 µM

NC(=O)c1[nH]c2ccc(Cl)cc2c1S(=O)(=O)c1ccccc1
solubility (10% w/v M-β-CD in water; 120 h, ambient): 45.1 µg/mL

COc1ccc2c(c1)c(CC(=O)O)c(C)n2C(=O)c1ccc(Cl)cc1
solubility (in vitro lipolysis; digested blank lipid formulation; 24 h, pH 6.5, 37 °C): ~1100 µg/mL

C=CC[C@@H]1/C=C(\C)C[C@H](C)C[C@H](OC)[C@H]2O[C@@](O)(C(=O)C(=O)N3CCCC[C@H]3C(=O)O[C@H](/C(C)=C/[C@@H]3CC[C@@H](O)[C@H](OC)C3)[C@H](C)[C@@H](O)CC1=O)[C@H](C)C[C@@H]2OC
solubility (menthol/camphor eutectic; menthol/camphor ratio 3/1 w/w): 136000 ± 5920 µg/mL

CCc1nc2c(C)cc(N3CCN(CC(=O)N4CC(O)C4)CC3)cn2c1N(C)c1nc(-c2ccc(F)cc2)c(C#N)s1
solubility (FeSSIF): 3490 µg/mL

COc1cc(/C=C/C(=O)CC(=O)/C=C/c2ccc(O)c(OC)c2)ccc1O
solubility (Transcutol HP; 48 h, room temperature): 141000 ± 3420 µg/mL

Oc1cc(O)c2c(c1)OC(O)(c1ccc(O)c(O)c1)C(O)C2 (stereo not drawn)
solubility (aqueous buffer): > 100 µM
